Measured values of several laboratories.
Numbered parts are unrelated; each lists some results of a single study.

Study 1
Target: Interferon regulatory factor 5, full length, phosphomimetic (IRF5, Homo sapiens, UniProt Q13568-2, residues 1-514, S451D/S453D/S456D/S462D)
Technique: protein-binding microarray
Molecule type: double-stranded DNA, one strand shown
Medium: in vitro
Concentration: 940 nM top
Setting: 60-bp whole probe
With: salmon DNA 0.4 mg/ml
Reference: random background probes
Reading: higher = stronger binding
Endpoint: fitted relative affinity
Shared flanks, not repeated: GCCTAGCAC … GTCTTGATTCGCTTGACGCTGCTG
Oligonucleotide = TAAGGTATCCTTATCCTTTAGTGCTAG; value = 0.275 z-score
Oligonucleotide = CTGCCTAACATGCTTCGAGATGTGCTA; value = 0.0352 z-score
Oligonucleotide = TTAGGTCTCGGTTTCGGATAGTGCTAG; value = 6.68 z-score
Oligonucleotide = GACGGACTGGGTTTCGGGACGTGCTAG; value = 2.42 z-score
Oligonucleotide = TTAGGACTGGGGGTTCGGTTAGTGCTA; value = 0.956 z-score
Oligonucleotide = TTAGGTGTCGGGACTGGGTTAGTGCTA; value = -0.204 z-score
Oligonucleotide = CTCACCTCAGCCTCCCAAGTGTGCTAG; value = 0.371 z-score
Oligonucleotide = GACGGCATCGACTATCGGGACGTGCTA; value = -0.716 z-score
Oligonucleotide = GACGATTTCCGGTATCGAGACGTGCTA; value = 2.21 z-score
Oligonucleotide = TCATCAATCATTTTAGTACTGTGCTAG; value = 0.523 z-score
Oligonucleotide = AATAAAATGAATATTAGAAGGTGCTAG; value = -0.091 z-score
Oligonucleotide = TTAGGTCTCCTTTTCCTTTTGTGCTAG; value = 0.825 z-score
Oligonucleotide = GACAGTATCCTTTTCCTGACGTGCTAG; value = 1.61 z-score
Oligonucleotide = GTCTCTTGTTCTCTCTGGCCGTGCTAG; value = 1.49 z-score
Oligonucleotide = GACGGTCTGCTTATCCTGACGTGCTAG; value = -0.345 z-score
Oligonucleotide = GACGGTTTCGGTTACGGGACGTGCTAG; value = 13.8 z-score
Oligonucleotide = TTAGATCTCAGTTTCGATCAGTGCTAG; value = 7.53 z-score
Oligonucleotide = GACGGACTGCTTATCTTGACGTGCTAG; value = -0.277 z-score
Oligonucleotide = TCATTTTTTTGTATTTTACTGTGCTAG; value = 1.53 z-score

Study 2
Target: Ras GTPase-activating protein-binding protein 1, RRM domain (G3BP1, Homo sapiens, UniProt Q13283)
Sequence of UniProt Q13283 (whole entry, looked up): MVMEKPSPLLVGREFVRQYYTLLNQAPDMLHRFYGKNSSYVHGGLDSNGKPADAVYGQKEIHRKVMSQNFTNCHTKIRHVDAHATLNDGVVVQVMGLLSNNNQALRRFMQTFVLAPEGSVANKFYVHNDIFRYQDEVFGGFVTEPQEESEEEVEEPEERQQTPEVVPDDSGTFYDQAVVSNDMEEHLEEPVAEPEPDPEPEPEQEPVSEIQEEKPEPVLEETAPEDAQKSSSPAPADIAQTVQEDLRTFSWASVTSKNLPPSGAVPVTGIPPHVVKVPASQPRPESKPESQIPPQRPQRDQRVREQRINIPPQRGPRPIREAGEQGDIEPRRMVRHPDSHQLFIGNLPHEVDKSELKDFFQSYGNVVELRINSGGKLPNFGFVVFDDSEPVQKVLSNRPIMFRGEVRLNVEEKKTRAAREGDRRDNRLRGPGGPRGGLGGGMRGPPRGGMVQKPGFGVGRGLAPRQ
Technique: RNA Bind-n-Seq
Molecule type: RNA
Medium: in vitro
Concentration: 1 µM
Setting: whole 134-nt RNA, ends assumed
With: 150 mM KCl
Reference: input library
Reading: higher = stronger binding
Endpoint: log2 enrichment
Shared flanks, not repeated: GGGAGUUCUACAGUCCGACGAUC … UGGAAUUCUCGGGUGUCAAGG
Oligonucleotide = CCUCAAGUCCUGUGCUACACAUCGUAUGUACCGAAUCGGUUUGGAGGAAAGGAAAGUAUUAUGUUACGCCGUUCGGAUCUGCACUUCCAG; value = -0.158
Oligonucleotide = ACCAUGCAGGUGGGCAUCUUUGGGAAGAAAGGCAAGGGGGGGAUAGGGAGGGGGGUAACACUUUGGGAACAGGUGGUCCCAGGUCGUUUC; value = -0.356
Oligonucleotide = CAAGUCCUGUGCUACACAUCGUAUGUACCGAAUCGGAGGAAAAAGGUUUUUUUGGAAAGUAUUAUGUUACGCCGUUCGGAUCUGCACUUC; value = -0.172
Oligonucleotide = UAACUUUAGAGGAGGAUCUGACGGAUAUGGCAGUGGACGUGGAUUUGGGGAUGGCUAUAAUGGGUAUGGAGGAGGACCUGGAGGUGGCAA; value = -0.862
Oligonucleotide = UGUGCUACACAUCGUAUGUACCGAAUCGGGGUUUUUUUGGUUUUUUUGGGGUUUUUUUGGGGAAAGUAUUAUGUUACGCCGUUCGGAUCU; value = -0.312
Oligonucleotide = UGGGACGUGGAUUUUGUUUAUUUUUUUAGCUCAUUUCCAGGGGUGGGAAUUUUUUUUUAAUAUGUGUCAUGAAUAAAGUUGUUUUUGAAA; value = 2.36
Oligonucleotide = UCCUGUGCUACACAUCGUAUGUACCGAAUCGGGUUUUUGGGGUUUUUGGGUUUUUGGGGAAAGUAUUAUGUUACGCCGUUCGGAUCUGCA; value = 0.137
Oligonucleotide = UGGCCCUAGUGGCAUGCGGGGAGGAAGAGGUGGCCUCAUGGAUCGUGGUGGUCCCGGUGGAAUGUUCAGAGGUGGCCGUGGUGGAGACAG; value = 0.856
Oligonucleotide = ACCAUGCAGGUGGGCAUCUUUGGGAAGUGGGGCAAGAAAGGGAUAGGGAGGGGGGUAACACUUUGGGAACAGGUGGUCCCAGGUCGUUUC; value = -0.238

Study 3
Target: Prothrombin, mature alpha-thrombin (F2, Homo sapiens, UniProt P00734)
Technique: aptamer microarray, sandwich
Molecule type: DNA with 2'F-ANA
Medium: in vitro
Concentration: 200 nM
Setting: whole 15-mer aptamer, many near background
With: Cy3 exosite-II aptamer, 400 nM
Reading: higher = stronger binding
Endpoint: mean fluorescence intensity
Oligonucleotide: GGTTGGTGTGGTTGG
Modification = 2'F-ANA at 1 3 5 7 9 12 15; value = 122 a.u.
Modification = 2'F-ANA at 2 3 5 6 7 9 10 11 12 13 14; value = 60.3 a.u.
Modification = 2'F-ANA at 1 3 4 5 6 7 8 10 11; value = 47.8 a.u.
Modification = 2'F-ANA at 1 7 11; value = 177 a.u.
Modification = 2'F-ANA at 4 5 10 12 13 14; value = 116 a.u.
Modification = 2'F-ANA at 4 5 9 10 11 12; value = 48.7 a.u.
Modification = 2'F-ANA at 2 6 7 8 10 11 12 13 14 15; value = 79.9 a.u.
Modification = 2'F-ANA at 1 4 6 9 10 14 15; value = 55.5 a.u.
Modification = 2'F-ANA at 2 5 6 9 10 11 12 14 15; value = 48.8 a.u.
Modification = 2'F-ANA at 1 5 7 8 10 13; value = 44.4 a.u.
Modification = 2'F-ANA at 1 2 5 11 15; value = 52.5 a.u.
Modification = 2'F-ANA at 1 3 10 14 15; value = 58.4 a.u.
Modification = 2'F-ANA at 1 2 3 6 8 9 12 14 15; value = 147 a.u.
Modification = 2'F-ANA at 1 2 3 4 9 13 15; value = 98.8 a.u.
Modification = 2'F-ANA at 8 9 10 14; value = 110 a.u.
Modification = 2'F-ANA at 1 3 5 10 11 13; value = 44.1 a.u.
Modification = 2'F-ANA at 1 2 4 5 7 9 10 11 12 14 15; value = 47.6 a.u.
Modification = 2'F-ANA at 1 4 6 7 9 10 11 12 13; value = 49.9 a.u.
Modification = 2'F-ANA at 2 9 11 12; value = 635 a.u.
Modification = 2'F-ANA at 2 7 8 11 12 13 14; value = 189 a.u.
Modification = 2'F-ANA at 1 5 7 9 14; value = 49.6 a.u.
Modification = 2'F-ANA at 1 3 4 5 7 8 9 10 11 13 14; value = 73.9 a.u.
Modification = 2'F-ANA at 2 4 14 15; value = 107 a.u.

Study 4
Target: Histone acetyltransferase KAT6A, both winged helices, GST fusion (KAT6A, Homo sapiens, UniProt Q92794, residues 1-181)
Technique: protein binding microarray
Molecule type: double-stranded DNA, one strand shown
Medium: in vitro
Concentration: not given
Setting: 8-mer, flanks averaged, mean of 2 arrays, mostly near background
Reference: not given
Reading: higher = stronger binding
Endpoint: E-score
Residues (chain): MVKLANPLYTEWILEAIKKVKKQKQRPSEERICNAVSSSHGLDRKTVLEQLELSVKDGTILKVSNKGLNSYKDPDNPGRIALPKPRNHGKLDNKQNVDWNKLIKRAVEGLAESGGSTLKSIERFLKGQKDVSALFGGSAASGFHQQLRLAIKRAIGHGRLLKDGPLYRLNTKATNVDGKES
Oligonucleotide = GTGGGTAA; value = -0.0519
Oligonucleotide = TGCGCGCA; value = 0.354
Oligonucleotide = CAGAGTTC; value = 0.00178
Oligonucleotide = AAATGTGA; value = -0.0847
Oligonucleotide = ATCTTGGA; value = -0.22
Oligonucleotide = CTAAGGTA; value = -0.0817
Oligonucleotide = ATTGTGTA; value = -0.0368
Oligonucleotide = GATGCGGC; value = 0.194
Oligonucleotide = GCCGTCTA; value = 0.229
Oligonucleotide = ACATCTCC; value = -0.0485
Oligonucleotide = TAAGACGA; value = -0.124
Oligonucleotide = GCCTCATA; value = -0.0998
Oligonucleotide = AGCAAAAG; value = -0.108
Oligonucleotide = CTCGTTCC; value = -0.0518
Oligonucleotide = GCGCTCCC; value = 0.203
Oligonucleotide = ATTTACCG; value = 0.13
Oligonucleotide = GCTGAGCC; value = 0.0239
Oligonucleotide = ATCTGAGA; value = -0.219
Oligonucleotide = GCTAGAAA; value = 0.0989
Oligonucleotide = AGCCCAAT; value = -0.244
Oligonucleotide = GGAATCGA; value = 0.0374
Oligonucleotide = AAAAGCAT; value = -0.123
Oligonucleotide = GCGATCAC; value = 0.2
Oligonucleotide = GGTACGTA; value = -0.0962
Oligonucleotide = GGTGCCAC; value = -0.0288

A few entries again (study 1):
Oligonucleotide = GACGATTTCCGGTATCGAGACGTGCTA; value = 2.21 z-score
Oligonucleotide = TCATCAATCATTTTAGTACTGTGCTAG; value = 0.523 z-score
Oligonucleotide = AATAAAATGAATATTAGAAGGTGCTAG; value = -0.091 z-score
Oligonucleotide = TTAGGTCTCCTTTTCCTTTTGTGCTAG; value = 0.825 z-score
Oligonucleotide = GACAGTATCCTTTTCCTGACGTGCTAG; value = 1.61 z-score
Oligonucleotide = GTCTCTTGTTCTCTCTGGCCGTGCTAG; value = 1.49 z-score
Oligonucleotide = GACGGTCTGCTTATCCTGACGTGCTAG; value = -0.345 z-score
Oligonucleotide = GACGGTTTCGGTTACGGGACGTGCTAG; value = 13.8 z-score
Oligonucleotide = TTAGATCTCAGTTTCGATCAGTGCTAG; value = 7.53 z-score
Oligonucleotide = GACGGACTGCTTATCTTGACGTGCTAG; value = -0.277 z-score
Oligonucleotide = TCATTTTTTTGTATTTTACTGTGCTAG; value = 1.53 z-score
